{"data": "Published values of several laboratories", "note": "Every numbered part comes from another study and shows a few of its results, in no order. ± marks the error that the study gave."}
{"data": "Set 1", "organism": "SARS-CoV-2 Wuhan spike VSV pseudovirus", "observed": "pseudovirus entry", "concentration": "10 µM"}
{"Compound": "Cc1noc(C)c1C(=O)N1C[C@@H](CO)[C@H](c2ccncc2)C1", "inhibition": "73%"}
{"Compound": "Cc1ncsc1CCN(C)C(=O)[C@H]1Cc2ccccc2CN1", "inhibition": "100%"}
{"Compound": "Nc1ccc(OC2=C(Cl)C(=O)c3ccccc3C2=O)cc1", "inhibition": "96%"}
{"Compound": "Cc1ccc(C)c(N2CCN(C(=O)CCCn3cnc4cc(S(=O)(=O)N(C)C)ccc43)CC2)c1", "inhibition": "74%"}
{"Compound": "CC(C)Oc1ccc(C(=O)Nc2nc3c(s2)CN(Cc2ccccc2)CC3)cc1", "inhibition": "60%"}
{"Compound": "Cc1noc([C@@H]2CN(C(=O)c3ccnn3C)C[C@H]2COCC2CC2)n1", "inhibition": "79%"}
{"Compound": "CSc1ccc(CN2CC[C@@H](N3CCN(c4ccccc4F)CC3)[C@H](O)C2)cc1", "inhibition": "71%"}
{"Compound": "CC(C)N(Cc1nccn1C)C(=O)C1CCCCO1 (stereo not drawn)", "inhibition": "99%"}
{"Compound": "C=CCN(Cc1ccccc1OCC)C(=O)c1c(C)nc2ncccn12", "inhibition": "99%"}
{"Compound": "CN1CCN(S(=O)(=O)c2ccc(N3Cc4cc5c(cc4C4(CCCC4)C3)OCCO5)nc2)CC1", "inhibition": "100%"}
{"Compound": "O=c1c(Cl)c(Cl)cnn1Cc1ccc([N+](=O)[O-])cc1", "inhibition": "99%"}
{"Compound": "Cc1cc2oc(=O)cc(C)c2cc1NC(=O)COCC(F)(F)C(F)F", "inhibition": "99%"}
{"Compound": "Cc1nn(CCC(C)C)c2c1C(CCc1ccccc1)CC(=O)N2 (stereo not drawn)", "inhibition": "100%"}
{"Compound": "CC(C)(C)NC(=O)NC(=O)Cn1ncc(Cl)c(Cl)c1=O", "inhibition": "69%"}
{"Compound": "CCOc1ccccc1CN1CCN(Cc2ccc3nsnc3c2)CC1CCO (stereo not drawn)", "inhibition": "59%"}
{"Compound": "CN(C)Cc1c(O)ccc2cc(-c3nc4ccccc4n3C)c(=O)oc12", "inhibition": "100%"}
{"Compound": "Cc1cc(-n2c(C)cc(C(=O)Cn3ncc(Cl)c(Cl)c3=O)c2C)no1", "inhibition": "65%"}
{"Compound": "O=C(OCc1cc(Cl)cc2c1OCOC2)c1ccc2c(c1)S(=O)(=O)N=C1CCCCCN12", "inhibition": "100%"}
{"Compound": "CC1Oc2ccc(Nc3nccc(C(F)(F)F)n3)cc2NC1=O (stereo not drawn)", "inhibition": "82%"}
{"Compound": "CN1CCN(Cc2c(O)ccc3cc(-c4ccc(F)cc4)c(=O)oc23)CC1", "inhibition": "98%"}
{"Compound": "CCOC(=O)c1nc(N2CCN(c3cccc(C(F)(F)F)c3)CC2)c2ccccc2n1", "inhibition": "75%"}
{"data": "Other studies, line by line", "rep papain-like protease": "Replicase polyprotein 1ab, papain-like protease (rep, Severe acute respiratory syndrome coronavirus 2, UniProt P0DTD1)", "rep nsp14": "Replicase polyprotein 1ab, nsp14 (rep, Severe acute respiratory syndrome coronavirus 2, UniProt P0DTD1)", "rep nsp12 RdRp": "Replicase polyprotein 1ab, nsp12 RdRp (rep, Severe acute respiratory syndrome coronavirus 2, UniProt P0DTD1)", "Matrix protein 2 V27A": "Matrix protein 2 (Influenza A virus, UniProt P0DOF5, V27A)"}
{"Substance": "Nc1ncnc2c1ncn2[C@@H]1O[C@H](CO)[C@@H](O)[C@@H]1O", "tested on": "SARS-CoV-2", "test": "viral RNA copies", "system": "Vero C1008, Omicron BA.1", "setting": "48 h", "measurement": "EC50", "value": "3250 ± 110 nM"}
{"Substance": "CN1C(=N)N[C@](C)(c2cc(NC(=O)c3ccc(F)cn3)ccc2F)CS1(=O)=O", "tested on": "rep papain-like protease", "setting": "concentration not given, C111S mutant", "scale": "baseline: positive control", "measurement": "activity", "value": "23.5%"}
{"Substance": "Nc1ncnc2c1ncn2[C@@H]1O[C@H](CSCC[C@H](N)C(=O)O)[C@@H](O)[C@H]1O", "tested on": "rep nsp14", "test": "thermal shift", "setting": "7.81 µM", "measurement": "ΔTm", "value": "4.7 °C"}
{"Substance": "CC(C)Nc1nc2cc(Cl)c(Cl)cc2n1[C@H]1O[C@@H](CO)[C@H](O)[C@@H]1O", "tested on": "SARS-CoV-2", "test": "viral RNA copies", "system": "Vero C1008, Omicron BA.1", "setting": "48 h", "measurement": "EC50", "value": "3140 ± 150 nM"}
{"Substance": "Cc1ccc(Oc2nc3cc(-c4ccc(-c5ccccc5)cc4)c(Cl)cc3[nH]2)cc1C(=O)O", "tested on": "rep nsp12 RdRp", "test": "binding, biolayer interferometry", "setting": "concentration not given", "measurement": "BLI response", "value": "7.61 nm"}
{"Substance": "CCCCCCC#Cc1cncc(-c2nnc(SCc3cc([N+](=O)[O-])cc([N+](=O)[O-])c3)n2C)c1", "tested on": "Mycobacterium tuberculosis", "test": "MABA", "system": "Erdman M3 FbiC P367S mutant", "measurement": "IC50", "value": "> 5000 nM"}
{"Substance": "NCC12CC3CC(CC1C3)C2", "tested on": "Matrix protein 2 V27A", "setting": "concentration not given, pH 5.5, cell-based", "measurement": "inhibition", "value": "0%"}
{"Substance": "O=C(NC1CCN(c2ncnc3[nH]cnc23)CC1)c1cccc(S(=O)(=O)N2CCC2)c1", "tested on": "rep nsp14", "test": "NSP14 enzyme activity, inhibitor", "setting": "0.1953 µM", "measurement": "inhibition", "value": "11%"}
{"Substance": "N#C[C@@]1(n2ccc(N)nc2=O)O[C@H](CO)[C@@H](O)[C@H]1O", "tested on": "SARS-CoV-2", "test": "viral replication", "system": "Vero, Beta", "measurement": "EC50", "value": "400 ± 20 nM"}
{"Substance": "SLVAVTAAQSTIEEQHKTFLDKFN", "tested on": "SARS-CoV-2 spike RBD", "test": "peptide spot array", "system": "peptide", "setting": "concentration not given", "scale": "baseline: wild-type ACE2 peptide", "measurement": "relative binding", "value": 3.07}
{"Substance": "CC(C)(C)[C@H](NC(=O)C(F)(F)F)C(=O)N1C[C@H]2[C@@H]([C@H]1C(=O)N[C@H](C#N)C[C@@H]1CCNC1=O)C2(C)C", "tested on": "SARS-CoV-2", "test": "replicon replication", "system": "Mpro L50F E166V replicon", "measurement": "EC50", "value": "3820 nM"}
{"Substance": "O=C(O)CCc1cc(C(=O)c2ccc(OC3CCCC3)cc2O)ccc1OCc1ccc2c(=O)[nH]oc2c1", "tested on": "rep nsp12 RdRp", "test": "binding, biolayer interferometry", "setting": "concentration not given", "measurement": "BLI response", "value": "0.14 nm"}
{"Substance": "CCC(CC)COC(=O)[C@H](C)N[P@](=O)(OC[C@H]1O[C@@](C#N)(c2ccc3c(N)ncnn23)[C@H](O)[C@@H]1O)Oc1ccccc1", "tested on": "SARS-CoV-2", "test": "viral replication", "system": "Vero, Gamma", "measurement": "EC90", "value": "800 ± 100 nM"}
{"Substance": "SLVAVHAAQSTIEEQAKTFLDKFN", "tested on": "SARS-CoV-2 spike RBD", "test": "peptide spot array", "system": "peptide", "setting": "concentration not given", "scale": "baseline: wild-type ACE2 peptide", "measurement": "relative binding", "value": 3.34}
{"Substance": "CCC(CC)[C@H](NC(C)=O)[C@@H]1[C@H](O)[C@@H](C(=O)O)C[C@H]1N=C(N)N", "tested on": "neuraminidase (Influenza B virus, UniProt C0LT34, I221T)", "measurement": "IC50", "value": "9.9 ± 0.9 nM"}
{"Substance": "O=C(Nc1cc(C(F)(F)F)ccc1N1CCCCC1)c1ccncc1", "tested on": "rep papain-like protease", "setting": "concentration not given, C111S mutant", "scale": "baseline: positive control", "measurement": "activity", "value": "28.3%"}
{"Substance": "CCc1cc(=O)c2c(O)c3ccoc3c(OC)c2o1", "tested on": "Mycobacterium tuberculosis", "test": "Alamar blue", "system": "22/22, SIRE and linezolid resistant", "setting": "21 days, 37 °C", "measurement": "MIC", "value": "128 µg/mL"}
{"Substance": "CNC12CC3CC(CC(C3)O1)C2", "tested on": "Matrix protein 2 V27A", "setting": "concentration not given, pH 5.5, cell-based", "measurement": "inhibition", "value": "0%"}
{"Substance": "CCCCCCC#Cc1cncc(-c2nnc(SCc3ccc([N+](=O)[O-])o3)n2C2CC2)c1", "tested on": "Mycobacterium tuberculosis", "test": "MABA", "system": "Erdman M3 FbiC P367S mutant", "measurement": "IC50", "value": "> 1000 nM"}
{"Substance": "CCc1cc(=O)c2c(OCC(O)CN3CCC(C)CC3)c3ccoc3c(OC)c2o1 (stereo not drawn)", "tested on": "Mycobacterium tuberculosis", "test": "Alamar blue", "system": "22/22, SIRE and linezolid resistant", "setting": "21 days, 37 °C", "measurement": "MIC", "value": "16 µg/mL"}
{"Substance": "CN(C)CCn1c(C(=O)N2CCN(c3ccccc3Cl)CC2)c(C(c2ccc(O)cc2)c2ccc(O)cc2)c2ccccc21", "tested on": "SARS-CoV-2", "test": "viral replication", "system": "293T-ACE2, USA-WA1/2020", "setting": "24 h", "measurement": "EC50", "value": "91 nM"}
{"note": "Some of these lines once more (set 1):"}
{"Compound": "Cc1ccc(C)c(N2CCN(C(=O)CCCn3cnc4cc(S(=O)(=O)N(C)C)ccc43)CC2)c1", "inhibition": "74%"}
{"Compound": "CC(C)Oc1ccc(C(=O)Nc2nc3c(s2)CN(Cc2ccccc2)CC3)cc1", "inhibition": "60%"}
{"Compound": "Cc1noc([C@@H]2CN(C(=O)c3ccnn3C)C[C@H]2COCC2CC2)n1", "inhibition": "79%"}
{"Compound": "CSc1ccc(CN2CC[C@@H](N3CCN(c4ccccc4F)CC3)[C@H](O)C2)cc1", "inhibition": "71%"}
{"Compound": "CC(C)N(Cc1nccn1C)C(=O)C1CCCCO1 (stereo not drawn)", "inhibition": "99%"}
